# Results from different studies.
# Protocols differ between the studies behind these lines. Values joined by “and” are separate records of one study, mostly repeats; a detail may differ. ± marks the error that the study gave.
SMILES,test,test system,setting,endpoint,value
COc1cc2nccc(Oc3ccc(NC(=O)c4cc5c(n(-c6ccccc6)c4=O)CCCC5=O)nc3)c2cc1OC,,"human, relapsed/refractory AML","oral, dose not given, CTCAE, all doses combined","patients, with TEAEs, drug-related grade ≥3",10%
CN1C(=O)[C@@H](NC(=O)c2nnc(Cc3ccccc3)[nH]2)COc2cccnc21,,"healthy human, fasted, plasma","oral, 10 mg single dose, geometric mean",terminal half-life,5.85 h
N#Cc1ccc2c(c1)[C@H]1CCCN(C(=O)c3ccc4[nH]cnc4c3)[C@H]1C2,,human males,"20 mg, day 7",total testosterone level,10.2 nmol/L
CC(C)C[C@H](NC(=O)[C@@H](Cc1c[nH]c2ccccc12)NC(=O)[C@H](Cc1ccc(O)cc1)NC(=O)[C@H](CO)NC(=O)[C@H](Cc1c[nH]c2ccccc12)NC(=O)[C@H](Cc1c[nH]cn1)NC(=O)[C@@H]1CCC(=O)N1)C(=O)N[C@@H](CCCNC(=N)N)C(=O)N1CCC[C@H]1C(=O)NCC(N)=O,,"Chinese CPP children, girls","intramuscular, 22.5 mg, 12 months, day 1, month 6","patients, drug-related nocturnal emission",0%
O=C(CCCCCCC(=O)Nc1ccc(CC[18F])cc1)NO,,"athymic nu/nu male mice, LNCaP xenograft, liver","intravenous, 0.5 h",tissue uptake,13 ± 2.7 %ID/g
C=CC(=O)N1CCC(c2ccc(C(N)=O)c(-c3ccc(Oc4ccccc4)cc3)n2)CC1,serious adverse event Infection,patients with relapsed/refractory MCL,oral,incidence,0.9%
COc1c(N2C[C@@H]3CCCN[C@@H]3C2)c(F)cc2c(=O)c(C(=O)O)cn(C3CC3)c12,,healthy volunteers,"oral, 400 mg single dose, day 5, 3.00 h",QTcI change from baseline,6.6 ms
CCNCCCn1c2c(c3cc(OC)c(OC)cc3c1=O)C(=O)c1cc3c(nc1-2)OCO3,,"male CD1 mouse, plasma","oral, 10 mg/kg",dose-normalized AUC(0-t),20.2 ng·h/mL
CCn1cc(C(=O)N2CCOCC2)c(=O)c2cc(NC3Cc4ccccc4C3)cnc21,,"human overall, fed, plasma","oral, 900 mg twice daily, day 7, tablet, arithmetic mean",AUC(0-12h),49400 ng·h/mL
C[C@@H](Nc1cc(F)cc(F)c1)c1cc(C(=O)N(C)C)cc2c(=O)cc(N3CCOCC3)oc12,,patients with advanced solid tumours,"oral, 120 mg twice daily continuous, monotherapy dose-expansion",share of patients with dose reduction,0%
COc1cc(Nc2ncc3c(n2)-c2ccc(Cl)cc2C(c2c(F)cccc2OC)=NC3)ccc1C(=O)O,,"human patients, plasma","oral, 40 mg twice daily, day 7, added: pembrolizumab",AUC(0-12h),9740 ng·h/mL
Cc1cc(-c2ccc3cc[nH]c(=O)c3c2)ccc1O[C@H]1O[C@H](CO)[C@@H](O)[C@H](O)[C@@H]1O,,"Sprague-Dawley rat, male, plasma","intravenous, 3 mg/kg",Vss,8.37 L/kg and 4.79 L/kg
CCOc1c([C@H](C)n2nc(C)c3c(N)ncnc32)cc(Cl)c(F)c1[C@@H]1CNC(=O)C1,ECG,previously treated B-cell malignancy patients,"oral, 10 mg once daily, baseline below thresholds",observations with PR ≤200 ms,100%
CC(=O)N[C@@H](CS)C(=O)O,,,,pulmonary solubility,670 µg/mL
O=C(Nc1nc2cccc(-c3ccc(CN4CCS(=O)(=O)CC4)cc3)n2n1)C1CC1,refers to: pyrexia,rheumatoid arthritis patients,"oral, 200 mg once daily, 4 weeks, any relatedness",treatment-emergent adverse events,8.3%
NC1(C(=O)N[C@@H](CCO)c2ccc(Cl)cc2)CCN(c2nc[nH]c3nccc2-3)CC1,,metastatic CRPC patients,"480 mg b.i.d., any grade, treatment-related, added: enzalutamide 160 mg daily",incidence of Pyrexia,0%
Cl.[2H]C([2H])([2H])CC(=O)c1cnc(NC(=O)C2CC2)cc1Nc1cccc(-c2ncn(C([2H])([2H])[2H])n2)c1OC,geometric mean,human,"oral, 10 mg single dose, fasted, liquid",Vz/F,164 L

# A few entries again:
SMILES,test,test system,setting,endpoint,value
CCOc1c([C@H](C)n2nc(C)c3c(N)ncnc32)cc(Cl)c(F)c1[C@@H]1CNC(=O)C1,ECG,previously treated B-cell malignancy patients,"oral, 10 mg once daily, baseline below thresholds",observations with PR ≤200 ms,100%
COc1cc(Nc2ncc3c(n2)-c2ccc(Cl)cc2C(c2c(F)cccc2OC)=NC3)ccc1C(=O)O,,"human patients, plasma","oral, 40 mg twice daily, day 7, added: pembrolizumab",AUC(0-12h),9740 ng·h/mL
